Experimental data of several laboratories.
A part holds a random share of what one study measured. Substitutions count along the parent as printed.

Sample 1
Target: FOSL2, bZIP domain (human)
Technique: DHFR protein complementation
Matrix: yeast
Notes: single substitutions, most at no-binding floor
Relative to: wild-type JUN-FOS pair
Reading: higher = stronger binding
Parent: JUN, bZIP domain (human); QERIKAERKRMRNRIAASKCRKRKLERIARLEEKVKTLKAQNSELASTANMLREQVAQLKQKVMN; partner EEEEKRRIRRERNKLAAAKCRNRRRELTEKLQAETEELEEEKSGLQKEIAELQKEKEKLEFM
| Change | binding fitness [natural log] |
| --- | --- |
| A29T | 0.0472 |
| M51F | 0.0403 |
| S43E | 0.194 |
| S43P | -1.02 |
| E33G | -0.106 |
| V35Q | -0.385 |
| A49L | 0.0968 |
| L52T | -0.583 |
| M51Q | 0.116 |
| I28F | -0.109 |
| L38R | -0.987 |
| L31P | -1.12 |
| L45V | -1.4 |
| I28Q | -0.0109 |
| R30W | 0.115 |
| E33F | -0.175 |

Sample 2
Target: RING finger protein unkempt homolog, zinc fingers 1-6, GST-SBP tag (UNK, Homo sapiens, UniProt Q9C0B0, residues 30-357)
UniProt Q9C0B0, sequence (30-357, looked up): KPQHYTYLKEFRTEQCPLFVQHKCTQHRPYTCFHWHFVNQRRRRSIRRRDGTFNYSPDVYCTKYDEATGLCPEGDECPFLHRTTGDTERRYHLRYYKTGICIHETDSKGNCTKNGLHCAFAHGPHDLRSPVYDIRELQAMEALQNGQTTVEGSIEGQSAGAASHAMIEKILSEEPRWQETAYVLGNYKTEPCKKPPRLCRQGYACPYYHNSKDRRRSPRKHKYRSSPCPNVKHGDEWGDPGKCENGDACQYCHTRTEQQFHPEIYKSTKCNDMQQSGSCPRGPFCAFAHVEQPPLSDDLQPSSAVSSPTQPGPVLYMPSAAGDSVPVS
Technique: RNA Bind-n-Seq
Molecule type: RNA
Matrix: in vitro
Concentration: not given
Notes: RNA with constant flanks, ends assumed
Relative to: input RNA pool
Reading: higher = stronger binding
Constant ends, left off below: GGGAGUUCUACAGUCCGACGAUC … CAACAGAGGAUUGAGCAUCA
| Strand | bound/input enrichment |
| --- | --- |
| AUUGUUGAAGCUAACCCACUCCUAGAAGCCUUUGGAAAUGCGAAGACUGUUCGCAACAAUAACCGCAGUCGAUUUGGGAAAUUUGUAGAAAUACAUUUUAAUGAAAAGAGCUCAGUUGUU | 0.298 ratio |
| GUUAAUCGUGAUUCAGAAAAUCUAGCUUCACCAUCUGAAUAUCCAGAAAAUGGAGAGAGAUUCCGUUUCCUAAGCAAACCUGUUGAUGAGAAUCACCAGCAGGAUGGAGAUGAAGAUUCC | 0.13 ratio |
| GAGGAGAGGAAGGCAUCUUGUACGUCGUUACAUUUAUCAUAUUGGAAGUCCCUUAAGCUCCCCGGAUUUUUAGAUGUUGAAAAUACUCCCUGCGCCCGGCAUUCAAUAUUGUAUGGUUCA | 0.303 ratio |
| UCCCUGUGCUUACUAAAUGAUUUGUGAAGAACUGUCCCCAAGUUGUAACCCAUGUACUCCCUCCGAGUUGCUGCAAAAUGUCUCUUAUAUUGAUGUUGUUUGUUUACCUGACUCUCCAUA | 0.934 ratio |
| GCUCCCACUGCAGCCUCGAGUGCCCCUGUCCCACCUGGCUCCCCCUGCUGGUGUCCCGUGUUUUUUUCCCUCUCCUGUCCUUGUGUUGAAGGCAGUAAACUAAGGGUGUCAAGCCCCAUU | 0.592 ratio |
| UCUCAGACUCCAGCUUCCAGCCCUACGUUCUUCCAGGCAGAGCUAUGGAUCAAAGAAUUAACCCGCGUUUAUGACUCUCGAGCUCGGGAAAGAUUGCGCCGGAUUGAAGAGCAGAAAGCA | 0.284 ratio |
| AAAGCCCUUAAAGCCAAGAAGGAAGAUGGGAAUAAAGCCUUUAAGGAAGGAAAUUACAAGCCCGCAUAUGAACUGUACACAGAAGCCUUGGGGAUAGAUCCCAACAACAUAAAAACAAAU | 0.223 ratio |
| CCCAAGAAACUCCAUUUGUGUGCCUUGUGUGGCAAGAACUUUUCUAAUAACUCAAACCUAAUCCGGCACCAGAGAAUACAUGCAGCAGAAAAGCUGUGUAUGGAUGUAGAGUGUGGUGAA | 0.289 ratio |

Sample 3
Target: ABI1, truncated, D143A, DHFR fusion (Arabidopsis thaliana)
Technique: DHFR PCA, deep sequencing
Matrix: yeast
Notes: methotrexate growth selection, single substitutions
Added: (+)-ABA 0.032 µM
Relative to: wild-type fitted maximum
Reading: higher = stronger binding
Parent: PYL1, truncated, DHFR fusion (Arabidopsis thaliana); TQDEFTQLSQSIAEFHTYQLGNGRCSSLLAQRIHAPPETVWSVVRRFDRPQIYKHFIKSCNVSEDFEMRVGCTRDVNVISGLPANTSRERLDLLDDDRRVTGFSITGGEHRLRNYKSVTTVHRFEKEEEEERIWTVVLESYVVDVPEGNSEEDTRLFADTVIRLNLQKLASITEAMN
| Change | relative binding score [%] |
| --- | --- |
| S150Q | 4.47 |
| T106N | -4.79 |
| S11E | 38.9 |
| G81D | 2.38 |
| V44Q | -5.5 |
| Q19Y | 5.65 |
| I79R | 1.34 |
| T173F | -4.86 |
| T119G | 1.84 |
| R49M | 17.4 |
| T173K | -6.66 |
| G102K | 2.09 |
| W41V | -0.977 |
| E14Y | 0.72 |
| N149C | 50.2 |
| E139A | 7.68 |
| V145T | -5.88 |
| F15L | 2.12 |
| V78C | 28.2 |

Sample 4
Target: Ras GTPase-activating protein-binding protein 1, full length (G3BP1, Homo sapiens, UniProt Q13283)
UniProt Q13283, sequence (whole entry, looked up): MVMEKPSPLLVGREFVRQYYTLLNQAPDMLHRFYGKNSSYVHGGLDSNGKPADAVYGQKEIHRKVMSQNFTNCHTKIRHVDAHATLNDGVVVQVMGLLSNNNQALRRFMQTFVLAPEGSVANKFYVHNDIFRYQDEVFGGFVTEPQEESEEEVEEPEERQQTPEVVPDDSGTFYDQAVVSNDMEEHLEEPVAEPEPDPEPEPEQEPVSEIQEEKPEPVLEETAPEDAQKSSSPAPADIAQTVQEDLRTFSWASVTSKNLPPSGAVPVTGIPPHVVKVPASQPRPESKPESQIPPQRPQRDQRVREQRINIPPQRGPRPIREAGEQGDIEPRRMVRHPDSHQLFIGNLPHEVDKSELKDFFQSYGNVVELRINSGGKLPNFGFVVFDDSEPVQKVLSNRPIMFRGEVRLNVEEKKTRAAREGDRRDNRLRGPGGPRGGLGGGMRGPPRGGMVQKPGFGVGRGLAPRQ
Technique: RNA Bind-n-Seq
Molecule type: RNA
Matrix: in vitro
Concentration: 200 nM
Notes: whole 134-nt RNA, ends assumed
Added: 150 mM LiCl
Relative to: input library
Reading: higher = stronger binding
Library: 7-deaza-guanosine replaces G
Constant ends, left off below: GGGAGUUCUACAGUCCGACGAUC … UGGAAUUCUCGGGUGUCAAGG
| Strand | log2 enrichment |
| --- | --- |
| GCAGGAAGUAAAAACAAAUGGAAAUGCUUCGGAUAGUGGCAGGGGUGGGGGUUGCUAAGGGAAGGGUGGGAUGGGAGUGGGUAAAGAGUU | 0.0889 |
| UCCUGUGCUACACAUCGUAUGUACCGAAUCGGGAAAAAAGGAAAAAAGGGAAAAAAGGGAAAGUAUUAUGUUACGCCGUUCGGAUCUGCA | 0.127 |
| UUCAUUCCUUGGAAGAAGCUGUACCAUCGAUACCUGAUGAAUGAAGAGCAAGCUGUCAGCAAAGUGGACGGCAUCCUGUCUAACUGUGGC | -2.43 |
| ACCAUGCAGGUGGGCAUCUUUGGGAAGUGGGGCAAGGGGGGGAUAGGGAGGGGGGUAACACUUUGGGAACAGCUGGUCCCAGGUCGUUUC | 0.23 |
| AAGUCCUGUGCUACACAUCGUAUGUACCGAAUCGGGAAAGGGUGGGAAAAAAAGGGAAAGUAUUAUGUUACGCCGUUCGGAUCUGCACUU | -0.364 |
| AAGUCCUGUGCUACACAUCGUAUGUACCGAAUCGGGGUUUGGGUUUGGGGUUUGGGGAAAGUAUUAUGUUACGCCGUUCGGAUCUGCACU | -0.34 |
| CCUGUGCUACACAUCGUAUGUACCGAAUCGGCCCCCCCGGGCCCCCCCGGCCCCCCCGGGAAAGUAUUAUGUUACGCCGUUCGGAUCUGC | 0.0469 |
| UCCUGUGCUACACAUCGUAUGUACCGAAUCGGGGAAAAAAGGGGAAAAAAGGAAAAAAGGAAAGUAUUAUGUUACGCCGUUCGGAUCUGC | -0.0602 |
| AAGUCCUGUGCUACACAUCGUAUGUACCGAAUCGGUUUGGAAAAAGGAAAAAAAGGAAAGUAUUAUGUUACGCCGUUCGGAUCUGCACUU | -0.713 |
| UAUCUUAUCUACACAUGGGGGACUGAAGAGUUCGAGAGAUCCAAGAGGAAGAAUCCAGCUGCCUAUGAAAAUGACAAAUGAGCAACGCAU | -0.77 |
| GUCCUGUGCUACACAUCGUAUGUACCGAAUCGGGAAAAAGGGGAAAAAGGGAAAAAGGAAAGUAUUAUGUUACGCCGUUCGGAUCUGCAC | 0.000112 |

Sample 5
Target: Histone acetyltransferase KAT6A, winged helix 2, GST fusion (KAT6A, Homo sapiens, UniProt Q92794, residues 85-181)
Technique: protein binding microarray
Molecule type: double-stranded DNA, one strand shown
Matrix: in vitro
Concentration: not given
Notes: 8-mer, flanks averaged, mean of 2 arrays, mostly near background
Relative to: not given
Reading: higher = stronger binding
Target sequence (chain): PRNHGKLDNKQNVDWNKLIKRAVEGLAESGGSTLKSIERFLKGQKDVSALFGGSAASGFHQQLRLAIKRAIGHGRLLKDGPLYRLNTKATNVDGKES
| Strand | E-score |
| --- | --- |
| GTTCCCCA | 0.0172 |
| AATTCGGT | 0.0412 |
| ACCGCGCC | 0.125 |
| ATGCCATA | -0.147 |
| ATCGAAGG | 0.0974 |
| AAACGCCA | 0.0258 |
| ACGACATG | 0.0891 |
| GAAGCAAA | 0.0562 |
| CTCCGCAC | 0.0888 |
| CTTATCTA | -0.0499 |
| ATTCTGGC | 0.0331 |
| GCAGGACA | 0.159 |
| ACATTTCA | -0.0866 |
| CCGTTAGA | 0.0217 |
| GAACCCCC | -0.182 |
| AGGCGCAC | 0.0856 |
| AGTGCTTG | -0.0216 |
| AGGGGGCG | 0.16 |
| GCGTGCAA | 0.0686 |
| CAGAGATA | -0.0156 |
| CTATCCTC | -0.0556 |
| CAGGCTCA | 0.124 |
| GCGGTTAC | 0.0533 |
| CGTCGCAC | 0.154 |

Sample 6
Target: CCNA1, cyclin fold, Cln2 fusion (human)
Technique: yeast growth competition, sequencing
Matrix: yeast
Notes: weak parent motif
Relative to: not given
Reading: higher = stronger binding
Parent: CDC25A docking peptide (human); PPHRRRLLFACSP; partner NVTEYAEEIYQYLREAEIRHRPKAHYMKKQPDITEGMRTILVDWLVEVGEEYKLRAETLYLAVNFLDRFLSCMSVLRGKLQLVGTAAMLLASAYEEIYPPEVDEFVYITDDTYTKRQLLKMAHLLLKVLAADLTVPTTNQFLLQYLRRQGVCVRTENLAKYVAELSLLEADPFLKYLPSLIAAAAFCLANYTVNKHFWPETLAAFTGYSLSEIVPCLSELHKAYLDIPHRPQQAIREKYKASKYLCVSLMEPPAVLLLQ
| Change | normalised enrichment score |
| --- | --- |
| PPIRRRLLFACSP [H3I] | 0.402 |
| PPHSRRLLFACSP [R4S] | -0.149 |
| PPRRRRLLFACSP [H3R] | 0.457 |
| PPHRRRLSFACSP [L8S] | 0.0813 |
| PPHRAAAAFACSP [R5A R6A L7A L8A] | 0.142 |
| PPHRRRWLFACSP [L7W] | 0.165 |
| PVHRRRLLFACSP [P2V] | 0.354 |
| PPHRRRLLAACSP [F9A] | 0.468 |
| VPHRRRLLFACSP [P1V] | 0.107 |
| PPHRRRLLFACFP [S12F] | 0.153 |
| PPHRRRLLFANSP [C11N] | 0.107 |
| TPHRRRLLFACSP [P1T] | 0.237 |
| PPHRRHLLFACSP [R6H] | 0.252 |
| PPHRIRLLFACSP [R5I] | 0.343 |
| PPHRRRPLFACSP [L7P] | 0.0756 |
| PPHRRRLWFACSP [L8W] | 0.203 |
| PPHTRRLLFACSP [R4T] | 0.281 |
| PPHRRRILFACSP [L7I] | 0.604 |
| PPHARRLLFACSP [R4A] | 0.196 |
| PMHRRRLLFACSP [P2M] | 0.488 |
